# Experimental data gathered from unrelated publications.
# Compare with care: the assays were run in different laboratories.
# SCTR: Secretin receptor (SCTR, Homo sapiens, UniProt P47872)
# Sequence of UniProt P47872 (whole entry, looked up): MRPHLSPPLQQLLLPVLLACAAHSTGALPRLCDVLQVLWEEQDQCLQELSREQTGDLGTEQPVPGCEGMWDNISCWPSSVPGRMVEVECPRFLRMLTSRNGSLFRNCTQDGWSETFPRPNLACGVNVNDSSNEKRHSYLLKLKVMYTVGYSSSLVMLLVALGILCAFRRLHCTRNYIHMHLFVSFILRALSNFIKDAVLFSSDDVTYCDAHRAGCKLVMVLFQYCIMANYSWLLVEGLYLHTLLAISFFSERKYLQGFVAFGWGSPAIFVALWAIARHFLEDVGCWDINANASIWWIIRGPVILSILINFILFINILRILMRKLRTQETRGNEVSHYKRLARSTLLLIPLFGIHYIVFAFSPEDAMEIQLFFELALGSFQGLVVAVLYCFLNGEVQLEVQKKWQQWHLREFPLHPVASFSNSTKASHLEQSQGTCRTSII
# FPR2: N-formyl peptide receptor 2 (FPR2, Homo sapiens, UniProt P25090)
# Sequence of UniProt P25090 (whole entry, looked up): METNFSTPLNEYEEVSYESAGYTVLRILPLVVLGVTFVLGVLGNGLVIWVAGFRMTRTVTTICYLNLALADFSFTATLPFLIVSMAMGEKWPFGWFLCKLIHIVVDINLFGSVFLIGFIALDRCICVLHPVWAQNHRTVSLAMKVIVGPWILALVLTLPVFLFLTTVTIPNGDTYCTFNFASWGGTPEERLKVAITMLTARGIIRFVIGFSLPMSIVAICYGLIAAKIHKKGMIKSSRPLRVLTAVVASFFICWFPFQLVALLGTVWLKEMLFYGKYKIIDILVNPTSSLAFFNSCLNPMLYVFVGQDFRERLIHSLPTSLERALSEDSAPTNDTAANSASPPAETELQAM
# RARB: Retinoic acid receptor beta (RARB, Homo sapiens, UniProt P10826)
# Sequence of UniProt P10826 (whole entry, looked up): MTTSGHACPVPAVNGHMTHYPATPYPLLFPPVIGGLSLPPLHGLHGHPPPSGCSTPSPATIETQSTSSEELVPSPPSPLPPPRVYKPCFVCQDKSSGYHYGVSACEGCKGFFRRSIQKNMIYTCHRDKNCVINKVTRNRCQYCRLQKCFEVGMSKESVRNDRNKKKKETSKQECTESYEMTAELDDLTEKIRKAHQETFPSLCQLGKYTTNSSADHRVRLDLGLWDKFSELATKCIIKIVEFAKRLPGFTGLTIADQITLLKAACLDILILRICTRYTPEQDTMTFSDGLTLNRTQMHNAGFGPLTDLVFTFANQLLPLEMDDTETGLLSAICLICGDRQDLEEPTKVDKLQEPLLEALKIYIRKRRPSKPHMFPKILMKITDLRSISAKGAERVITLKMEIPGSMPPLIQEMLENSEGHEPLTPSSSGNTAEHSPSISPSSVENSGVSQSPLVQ
# G-protein coupled receptor 39: G-protein coupled receptor 39 (Mus musculus, UniProt Q5U431)
# Sequence of UniProt Q5U431 (whole entry, looked up): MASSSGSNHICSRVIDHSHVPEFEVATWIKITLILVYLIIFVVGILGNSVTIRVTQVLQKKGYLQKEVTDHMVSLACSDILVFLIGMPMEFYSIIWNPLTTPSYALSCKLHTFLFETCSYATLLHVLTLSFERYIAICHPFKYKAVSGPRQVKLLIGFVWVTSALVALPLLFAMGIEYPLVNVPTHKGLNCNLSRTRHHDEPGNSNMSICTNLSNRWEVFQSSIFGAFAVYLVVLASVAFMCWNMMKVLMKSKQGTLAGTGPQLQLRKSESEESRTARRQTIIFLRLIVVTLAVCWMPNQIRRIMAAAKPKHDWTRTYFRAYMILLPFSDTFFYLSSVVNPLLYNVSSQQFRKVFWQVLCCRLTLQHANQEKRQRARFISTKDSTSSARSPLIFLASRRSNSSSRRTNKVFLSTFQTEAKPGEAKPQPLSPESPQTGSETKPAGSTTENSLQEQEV
# HDAC6: Protein deacetylase HDAC6 (HDAC6, Homo sapiens, UniProt Q9UBN7)
# Sequence of UniProt P0DMS8 (whole entry, unmodified, looked up): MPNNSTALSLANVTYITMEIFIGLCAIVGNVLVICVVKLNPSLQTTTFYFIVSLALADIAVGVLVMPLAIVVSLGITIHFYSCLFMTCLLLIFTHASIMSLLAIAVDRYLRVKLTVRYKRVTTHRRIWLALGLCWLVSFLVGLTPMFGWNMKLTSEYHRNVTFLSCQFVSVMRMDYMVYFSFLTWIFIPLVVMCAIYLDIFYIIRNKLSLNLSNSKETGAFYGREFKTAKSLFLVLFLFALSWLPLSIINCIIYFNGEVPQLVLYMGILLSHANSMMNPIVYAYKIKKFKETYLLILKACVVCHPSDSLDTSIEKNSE
# Sequence of UniProt Q9UBN7 (whole entry, looked up): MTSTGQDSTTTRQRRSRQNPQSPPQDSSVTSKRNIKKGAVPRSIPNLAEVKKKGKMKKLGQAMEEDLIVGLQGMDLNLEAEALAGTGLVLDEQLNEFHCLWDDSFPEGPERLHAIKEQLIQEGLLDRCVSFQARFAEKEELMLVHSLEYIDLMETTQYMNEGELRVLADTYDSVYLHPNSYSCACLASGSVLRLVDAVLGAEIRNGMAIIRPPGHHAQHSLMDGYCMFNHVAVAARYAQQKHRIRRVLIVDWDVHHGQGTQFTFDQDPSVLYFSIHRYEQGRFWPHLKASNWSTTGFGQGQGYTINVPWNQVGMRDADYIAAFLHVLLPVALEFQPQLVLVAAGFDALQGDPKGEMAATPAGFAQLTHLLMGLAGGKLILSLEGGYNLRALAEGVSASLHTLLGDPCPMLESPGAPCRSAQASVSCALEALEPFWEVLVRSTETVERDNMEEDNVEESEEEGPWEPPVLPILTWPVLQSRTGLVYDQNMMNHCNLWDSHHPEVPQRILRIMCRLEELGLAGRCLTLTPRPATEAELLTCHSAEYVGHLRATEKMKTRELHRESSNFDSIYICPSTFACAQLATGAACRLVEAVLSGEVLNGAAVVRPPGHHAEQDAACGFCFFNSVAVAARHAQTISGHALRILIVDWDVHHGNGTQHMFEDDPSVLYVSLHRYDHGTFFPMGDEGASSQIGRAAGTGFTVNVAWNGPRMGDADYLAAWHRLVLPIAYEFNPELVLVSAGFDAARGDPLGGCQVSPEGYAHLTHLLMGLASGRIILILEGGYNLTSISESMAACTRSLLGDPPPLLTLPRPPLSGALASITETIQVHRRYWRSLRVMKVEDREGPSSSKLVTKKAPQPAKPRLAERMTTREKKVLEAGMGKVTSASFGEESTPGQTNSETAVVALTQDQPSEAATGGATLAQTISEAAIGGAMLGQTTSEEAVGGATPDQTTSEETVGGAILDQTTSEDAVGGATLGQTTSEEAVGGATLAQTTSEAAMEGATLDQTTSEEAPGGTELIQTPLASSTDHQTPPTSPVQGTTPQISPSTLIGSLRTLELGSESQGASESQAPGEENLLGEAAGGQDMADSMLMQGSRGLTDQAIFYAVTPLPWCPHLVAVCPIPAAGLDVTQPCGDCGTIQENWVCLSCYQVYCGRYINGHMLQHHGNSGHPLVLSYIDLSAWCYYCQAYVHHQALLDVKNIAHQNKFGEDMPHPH
# Sequence of UniProt P35869 (whole entry, looked up): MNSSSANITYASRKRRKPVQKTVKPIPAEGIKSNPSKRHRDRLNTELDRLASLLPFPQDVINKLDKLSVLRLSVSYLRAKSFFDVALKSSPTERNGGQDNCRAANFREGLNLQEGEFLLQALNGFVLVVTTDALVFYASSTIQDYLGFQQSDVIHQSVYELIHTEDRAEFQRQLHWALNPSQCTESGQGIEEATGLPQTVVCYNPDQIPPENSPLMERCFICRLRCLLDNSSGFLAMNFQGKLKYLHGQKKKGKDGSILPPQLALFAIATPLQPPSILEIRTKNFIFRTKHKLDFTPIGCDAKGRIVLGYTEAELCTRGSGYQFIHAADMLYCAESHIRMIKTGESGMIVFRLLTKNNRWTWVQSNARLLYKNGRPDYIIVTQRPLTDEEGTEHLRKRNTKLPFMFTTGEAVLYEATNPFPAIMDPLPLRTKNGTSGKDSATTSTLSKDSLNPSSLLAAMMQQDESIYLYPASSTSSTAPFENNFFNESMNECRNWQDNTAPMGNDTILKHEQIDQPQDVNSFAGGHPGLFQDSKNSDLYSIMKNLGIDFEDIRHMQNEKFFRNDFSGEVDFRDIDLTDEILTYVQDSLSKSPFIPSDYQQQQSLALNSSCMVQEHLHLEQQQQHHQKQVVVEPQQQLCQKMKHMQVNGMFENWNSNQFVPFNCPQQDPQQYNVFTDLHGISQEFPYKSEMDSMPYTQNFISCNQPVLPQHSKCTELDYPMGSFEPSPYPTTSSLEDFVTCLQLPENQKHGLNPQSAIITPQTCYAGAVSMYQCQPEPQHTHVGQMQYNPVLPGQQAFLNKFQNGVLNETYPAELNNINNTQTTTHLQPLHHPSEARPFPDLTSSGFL
# Sequence of UniProt Q9Y6E0 (whole entry, looked up): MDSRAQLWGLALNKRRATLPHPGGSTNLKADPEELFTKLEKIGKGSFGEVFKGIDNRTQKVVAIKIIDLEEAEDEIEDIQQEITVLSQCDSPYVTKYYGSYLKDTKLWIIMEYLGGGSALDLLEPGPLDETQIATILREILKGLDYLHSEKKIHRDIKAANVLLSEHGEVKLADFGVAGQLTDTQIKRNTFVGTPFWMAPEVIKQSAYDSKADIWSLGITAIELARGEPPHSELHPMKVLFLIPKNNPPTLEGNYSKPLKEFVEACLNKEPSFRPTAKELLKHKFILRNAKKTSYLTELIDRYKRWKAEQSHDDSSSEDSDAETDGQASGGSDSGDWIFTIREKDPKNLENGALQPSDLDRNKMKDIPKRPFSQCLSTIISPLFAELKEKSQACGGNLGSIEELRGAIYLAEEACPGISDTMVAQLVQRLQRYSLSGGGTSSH
# Sequence of UniProt P18089 (whole entry, looked up): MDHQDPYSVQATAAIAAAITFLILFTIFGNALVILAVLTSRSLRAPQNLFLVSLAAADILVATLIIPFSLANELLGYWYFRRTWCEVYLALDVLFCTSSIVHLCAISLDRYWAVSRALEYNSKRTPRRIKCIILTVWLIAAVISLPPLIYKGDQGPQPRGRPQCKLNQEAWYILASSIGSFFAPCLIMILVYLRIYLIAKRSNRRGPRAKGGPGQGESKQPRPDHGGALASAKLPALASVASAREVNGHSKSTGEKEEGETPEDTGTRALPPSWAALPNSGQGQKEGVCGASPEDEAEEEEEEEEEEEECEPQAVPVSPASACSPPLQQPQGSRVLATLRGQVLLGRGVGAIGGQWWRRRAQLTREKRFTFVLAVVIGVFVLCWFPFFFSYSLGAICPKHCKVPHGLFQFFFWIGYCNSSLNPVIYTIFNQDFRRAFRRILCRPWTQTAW
Compound,target or system,test,test system,setting,endpoint,result
CC1=NN(/C(=N/c2nnc(C)s2)Nc2ccc(C)c(C)c2)C(c2ccc(F)c(F)c2)S1 (stereo not drawn),SCTR,"cAMP, agonist, TR-FRET",,,EC50,0.4 µM
Nc1ccn([C@@H]2O[C@H](CO)[C@@H](O)C2(F)F)c(=O)n1,MDA-MB-231,"cell growth or viability, MTT",,"0.039063 µg/mL, 48 h",viability,93%
Cc1cc(Oc2ncccc2CN2CCN(c3ccccc3)CC2)ccc1-c1c(C)c(=O)[nH]c(=O)n1C,"ADRA2B (Homo sapiens, UniProt P18089)","cAMP, agonist, luciferase",,,EC50,112 µM
CC1=NN(/C(=N\c2ccccc2C)Nc2nnc(C)s2)C(c2ccc(C)cc2)S1 (stereo not drawn),SCTR,"cAMP, agonist, TR-FRET",,,EC50,> 50 µM
N#Cc1ccc(C[C@H](Nc2ncc(-c3ccc(F)cc3)o2)C(=O)N2CCc3ccccc32)cc1,FPR2,"calcium signal, agonist",,,EC50,50 µM
CC1=NN(/C(=N\c2ccc(C(F)(F)F)cc2)Nc2nnc(C)s2)C(c2ccc(C)cc2)S1 (stereo not drawn),SCTR,"cAMP, agonist, TR-FRET",,,EC50,16.5 µM
COC(=O)c1cccc(C(=O)c2c[nH]c3ccc(OC)cc23)n1,"AHR (Homo sapiens, UniProt P35869)","reporter gene, agonist, luciferase",,,EC50,0.064 µM
N#Cc1ccc(C[C@H](Nc2nnc(-c3ccc(Br)cc3)s2)C(=O)N2CCc3ccccc32)cc1,FPR2,"calcium signal, agonist",,,EC50,28.1 µM
O=c1nc(N2CCN(CC3CCCCC3)CC2)sc2c([N+](=O)[O-])cc(C(F)(F)F)cc12,,,"CD-1 mouse, lung","oral, 100 mg/kg, 4.98 min",concentration,129 ng/mL
C=CC(=O)N1CCC(COCC(=O)N2CCN(c3nc(-c4cnc(N)nc4C(F)F)nc(N4CCOC[C@@H]4C)n3)CC2)CC1,"MAST1 (Homo sapiens, UniProt Q9Y2H9)","binding, competition with immobilised ligand",,1 µM,remaining binding,97%
COc1cc(-c2cncc3c2CN(C)Cc2cc(N4CCNCC4)ccc2-3)cc(OC)c1OC,"TLK1 (Homo sapiens, UniProt Q9UKI8)","enzyme activity, inhibitor",,1 µM,remaining activity,90%
Cc1cccc(-c2nnc(N[C@@H](Cc3ccc(C#N)cc3)C(=O)N3CCc4ccccc43)o2)c1,FPR2,"calcium signal, agonist",,,EC50,29.6 µM
CC1=NN(/C(=N\c2ccc(F)cc2)Nc2nnc(C)s2)C(c2ccc(C)cc2)S1 (stereo not drawn),SCTR,"cAMP, agonist, TR-FRET",,,EC50,6.8 µM
Cc1ccc(C2=CCC(C)(C)c3cc(C(/C=C/c4ccc(C(=O)O)cc4)=N/O)ccc32)cc1,RARB,"reporter gene, antagonist, luciferase",,,EC50,> 5 µM
N#Cc1ccc(C[C@H](Nc2nnc(-c3ccc(F)cc3)s2)C(=O)N2CCc3ccccc32)cc1,FPR2,"calcium signal, agonist",,,EC50,2 µM
CC1=NN(/C(=N\c2ccccc2)Nc2nnc(C)s2)C(c2ccc(C)cc2)S1 (stereo not drawn),SCTR,"cAMP, agonist, TR-FRET",,,EC50,17.6 µM
N#Cc1ccc(C[C@H](Nc2nnc(-c3cccc(F)c3)s2)C(=O)N2CCc3ccccc32)cc1,FPR2,"calcium signal, agonist",,,EC50,37.4 µM
COc1cccc(-c2n[nH]c(SCc3ccccn3)n2)c1OC,,,"female Sprague-Dawley rat, plasma","oral, 100 mg/kg, 8 h, single dose",concentration,4990 ng/mL
C[C@H](CCC(=O)O)[C@H]1CC[C@H]2[C@@H]3[C@H](O)C[C@@H]4C[C@H](O)CC[C@]4(C)[C@H]3CC[C@]12C,G-protein coupled receptor 39,"calcium signal, agonist, fluorescence",,,EC50,> 200 µM
Cc1cc(NS(=O)(=O)c2ccc(N=NN(O)c3ccccc3)cc2)no1,,ABTS scavenging,,300 µg/mL,inhibition,98.7%
CC1=NN(/C(=N/c2nnc(C)s2)Nc2ccc(C)c(C)c2)C(c2cccc(-c3ccccc3)c2)S1 (stereo not drawn),SCTR,"cAMP, agonist, TR-FRET",,,EC50,1.2 µM
CN(C)c1ncnc2c1ncn2[C@@H]1O[C@H](CO)[C@@H](O)[C@H]1O,"ADORA3 (Homo sapiens, UniProt P0DMS8, I253Q/V169N)","G protein activation, agonist",,,EC50,26 µM
C[C@H](CCC(=O)O)[C@H]1CC[C@H]2[C@@H]3[C@H](O)C[C@@H]4C[C@H](O)CC[C@]4(C)[C@H]3C[C@H](O)[C@]12C,G-protein coupled receptor 39,"calcium signal, agonist, fluorescence",,,EC50,> 200 µM
Cc1oc2ccccc2c1Cc1cc(I)c(OCC(=O)O)c(I)c1,"KCNH1 (Homo sapiens, UniProt O95259)","ion current, agonist, patch clamp",,,EC50,0.5 µM
C[C@H](CCC(=O)O)[C@H]1CC[C@H]2[C@@H]3CC[C@@H]4C[C@H](O)CC[C@]4(C)[C@H]3C[C@H](O)[C@]12C,G-protein coupled receptor 39,"calcium signal, agonist, fluorescence",,,EC50,> 200 µM
O=C(NO)c1cc(F)cc(OS(=O)(=O)Oc2ccc(Oc3ccccc3)cc2)c1,HDAC6,"enzyme activity, inhibitor, fluorescence",,,Ki,1.18 µM
C1=C/COCc2cc(ccc2OCCN2CCCC2)Nc2nccc(n2)-c2cccc(c2)COC/1,"STK24 (Homo sapiens, UniProt Q9Y6E0)",cell-free assay,,0.1 µM,remaining signal,99%
CC(C)=CCNc1ncnc2c1ncn2[C@@H]1O[C@H](CO)[C@@H](O)[C@H]1O,"ADORA3 (Homo sapiens, UniProt P0DMS8, V169F)","G protein activation, agonist",,,EC50,1.3 µM
CC1=NN(/C(=N\c2cccc(C)c2)Nc2nnc(C)s2)C(c2ccc(C)cc2)S1 (stereo not drawn),SCTR,"cAMP, agonist, TR-FRET",,,EC50,3.2 µM
CCOc1c(Br)cc(C(=O)Nc2ccc(C(=O)O)cc2)cc1C(=O)c1ccc(C)cc1,RARB,"reporter gene, antagonist, luciferase",,,EC50,> 5 µM
CC1=NN(/C(=N\c2ccncc2)Nc2nnc(C)s2)C(c2ccc(C)cc2)S1 (stereo not drawn),SCTR,"cAMP, agonist, TR-FRET",,,EC50,> 50 µM
CC1=C(O)C(=O)OC1C (stereo not drawn),"OR8D1 (Homo sapiens, UniProt Q8WZ84, D296E/K295A)","cAMP, agonist, luciferase",,,EC50,5.13 µM
O=C(NO)c1cccc(OS(=O)(=O)Oc2cccc(-c3ccccc3)c2)c1,HDAC6,"enzyme activity, inhibitor, fluorescence",,,Ki,0.295 µM
Cc1cc([C@@H](C)Nc2ccccc2C(=O)O)c2nc(N3CCC(F)(F)CC3)c(C#N)c(=O)n2c1,"MKNK2 (Homo sapiens, UniProt Q9HBH9)","binding, competition with immobilised ligand",,1 µM,remaining binding,100%
CNc1ncc2c(/C=C/C(=O)N3CCC(OC)CC3)nn(Cc3cccc(C(F)(F)F)c3)c2n1,"DAPK2 (Homo sapiens, UniProt Q9UIK4)","enzyme activity, inhibitor, radiometric",,1 µM,remaining activity,96%
CCCCC(=O)Nc1ccc(-c2ccc3ncn(CCC)c(=O)c3c2)cn1,"STK39 (Homo sapiens, UniProt Q9UEW8)","binding, competition with immobilised ligand",,0.5 µM,remaining binding,100%
